Experimental data from different studies.
A part holds a random share of what one study measured.
UniProt P36897, sequence (whole entry, looked up): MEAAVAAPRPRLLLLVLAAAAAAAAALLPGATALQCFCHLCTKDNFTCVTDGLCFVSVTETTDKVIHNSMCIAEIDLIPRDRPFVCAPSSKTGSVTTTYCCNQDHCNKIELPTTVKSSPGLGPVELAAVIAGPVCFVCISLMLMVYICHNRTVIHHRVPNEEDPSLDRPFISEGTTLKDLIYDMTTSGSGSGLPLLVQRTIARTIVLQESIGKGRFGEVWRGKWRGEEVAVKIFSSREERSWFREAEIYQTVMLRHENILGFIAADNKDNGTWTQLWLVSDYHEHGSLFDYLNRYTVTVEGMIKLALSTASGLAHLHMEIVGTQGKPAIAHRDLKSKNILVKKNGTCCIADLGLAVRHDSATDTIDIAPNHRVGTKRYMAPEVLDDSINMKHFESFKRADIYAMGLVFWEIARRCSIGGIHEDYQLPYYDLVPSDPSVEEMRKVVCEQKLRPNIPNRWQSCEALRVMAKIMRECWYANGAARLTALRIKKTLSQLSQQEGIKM
UniProt Q9NY57, sequence (whole entry, looked up): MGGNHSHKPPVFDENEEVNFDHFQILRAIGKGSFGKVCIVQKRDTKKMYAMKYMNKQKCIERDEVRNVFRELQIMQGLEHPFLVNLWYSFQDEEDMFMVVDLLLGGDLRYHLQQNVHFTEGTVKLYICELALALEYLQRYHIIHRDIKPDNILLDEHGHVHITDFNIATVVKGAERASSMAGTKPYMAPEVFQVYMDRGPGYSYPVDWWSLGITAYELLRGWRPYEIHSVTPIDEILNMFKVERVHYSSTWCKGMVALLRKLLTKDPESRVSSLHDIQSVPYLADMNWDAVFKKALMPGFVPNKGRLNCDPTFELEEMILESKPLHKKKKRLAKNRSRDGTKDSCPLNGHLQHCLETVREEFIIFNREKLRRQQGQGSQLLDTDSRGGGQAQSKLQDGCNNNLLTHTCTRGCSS
UniProt Q9UM73, sequence (whole entry, unmodified, looked up): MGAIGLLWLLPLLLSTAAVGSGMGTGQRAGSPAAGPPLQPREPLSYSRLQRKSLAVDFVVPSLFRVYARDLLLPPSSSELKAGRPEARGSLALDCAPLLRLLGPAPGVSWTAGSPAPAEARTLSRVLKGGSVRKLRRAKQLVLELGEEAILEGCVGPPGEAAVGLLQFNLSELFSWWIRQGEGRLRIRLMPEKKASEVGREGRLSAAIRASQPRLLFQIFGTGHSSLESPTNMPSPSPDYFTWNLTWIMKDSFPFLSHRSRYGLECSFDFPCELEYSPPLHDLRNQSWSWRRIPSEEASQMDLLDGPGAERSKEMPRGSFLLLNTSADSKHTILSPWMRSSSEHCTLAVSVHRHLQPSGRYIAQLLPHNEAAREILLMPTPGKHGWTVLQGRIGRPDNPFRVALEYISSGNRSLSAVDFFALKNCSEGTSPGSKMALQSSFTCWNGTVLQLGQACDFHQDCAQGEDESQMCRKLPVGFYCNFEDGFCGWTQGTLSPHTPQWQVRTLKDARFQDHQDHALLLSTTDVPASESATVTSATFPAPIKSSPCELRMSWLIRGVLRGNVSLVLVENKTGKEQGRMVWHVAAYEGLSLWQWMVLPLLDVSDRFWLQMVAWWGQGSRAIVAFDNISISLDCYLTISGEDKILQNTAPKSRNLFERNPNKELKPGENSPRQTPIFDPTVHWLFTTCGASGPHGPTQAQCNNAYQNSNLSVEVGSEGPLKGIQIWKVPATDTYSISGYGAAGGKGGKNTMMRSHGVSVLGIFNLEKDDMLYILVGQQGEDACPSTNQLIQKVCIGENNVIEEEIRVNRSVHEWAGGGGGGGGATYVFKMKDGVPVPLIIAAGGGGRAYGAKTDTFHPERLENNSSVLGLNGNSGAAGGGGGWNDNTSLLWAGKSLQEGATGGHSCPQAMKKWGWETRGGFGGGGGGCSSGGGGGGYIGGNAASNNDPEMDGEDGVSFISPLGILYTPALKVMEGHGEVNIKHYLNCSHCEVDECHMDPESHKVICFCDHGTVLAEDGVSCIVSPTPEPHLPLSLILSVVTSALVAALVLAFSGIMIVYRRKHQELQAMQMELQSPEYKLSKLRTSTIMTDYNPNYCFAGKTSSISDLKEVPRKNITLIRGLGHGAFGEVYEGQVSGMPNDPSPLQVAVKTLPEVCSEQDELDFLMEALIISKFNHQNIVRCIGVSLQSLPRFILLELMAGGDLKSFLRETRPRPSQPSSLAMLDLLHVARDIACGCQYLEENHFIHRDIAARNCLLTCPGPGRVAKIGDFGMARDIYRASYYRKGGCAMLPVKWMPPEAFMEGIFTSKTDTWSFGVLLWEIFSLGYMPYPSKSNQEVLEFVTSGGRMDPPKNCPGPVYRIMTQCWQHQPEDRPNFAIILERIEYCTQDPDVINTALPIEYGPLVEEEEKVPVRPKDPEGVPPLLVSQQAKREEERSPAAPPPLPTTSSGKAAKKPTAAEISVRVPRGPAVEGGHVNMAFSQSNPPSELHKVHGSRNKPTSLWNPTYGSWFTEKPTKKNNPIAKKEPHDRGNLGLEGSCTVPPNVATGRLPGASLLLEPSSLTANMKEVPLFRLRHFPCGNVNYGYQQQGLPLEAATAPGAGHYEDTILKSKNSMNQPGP
UniProt Q9H2G2, sequence (whole entry, looked up): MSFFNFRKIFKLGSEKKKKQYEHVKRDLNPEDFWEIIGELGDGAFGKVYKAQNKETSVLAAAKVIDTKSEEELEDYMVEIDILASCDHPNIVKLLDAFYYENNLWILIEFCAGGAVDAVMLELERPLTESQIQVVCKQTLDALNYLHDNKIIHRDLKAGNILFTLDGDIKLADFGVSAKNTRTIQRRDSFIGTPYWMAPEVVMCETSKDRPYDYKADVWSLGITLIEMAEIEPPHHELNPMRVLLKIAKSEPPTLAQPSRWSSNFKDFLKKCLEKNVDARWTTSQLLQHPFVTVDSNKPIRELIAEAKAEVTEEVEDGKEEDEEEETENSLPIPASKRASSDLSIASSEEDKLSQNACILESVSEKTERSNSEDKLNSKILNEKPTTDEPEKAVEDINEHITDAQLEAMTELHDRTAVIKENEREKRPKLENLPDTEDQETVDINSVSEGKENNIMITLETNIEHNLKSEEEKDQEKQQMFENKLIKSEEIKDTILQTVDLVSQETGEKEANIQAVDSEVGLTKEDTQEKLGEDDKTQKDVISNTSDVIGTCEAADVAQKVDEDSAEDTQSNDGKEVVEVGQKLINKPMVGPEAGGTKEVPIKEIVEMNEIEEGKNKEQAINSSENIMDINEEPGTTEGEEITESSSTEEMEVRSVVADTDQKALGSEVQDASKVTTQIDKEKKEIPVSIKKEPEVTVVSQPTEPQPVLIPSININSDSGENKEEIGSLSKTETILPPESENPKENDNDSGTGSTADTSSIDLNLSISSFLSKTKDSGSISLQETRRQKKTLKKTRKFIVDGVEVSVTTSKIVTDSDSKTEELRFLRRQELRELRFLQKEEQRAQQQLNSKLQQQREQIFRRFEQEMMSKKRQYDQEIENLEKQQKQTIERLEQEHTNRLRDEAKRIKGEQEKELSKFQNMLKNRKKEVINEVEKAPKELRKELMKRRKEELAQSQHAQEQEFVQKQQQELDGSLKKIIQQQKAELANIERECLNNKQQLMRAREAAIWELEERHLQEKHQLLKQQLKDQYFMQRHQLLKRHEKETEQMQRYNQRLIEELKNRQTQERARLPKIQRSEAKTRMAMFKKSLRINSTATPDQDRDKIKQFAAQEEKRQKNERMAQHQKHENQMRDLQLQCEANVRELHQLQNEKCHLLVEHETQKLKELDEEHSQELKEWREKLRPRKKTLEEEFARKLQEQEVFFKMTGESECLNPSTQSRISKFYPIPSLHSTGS
UniProt O00444, sequence (whole entry, looked up): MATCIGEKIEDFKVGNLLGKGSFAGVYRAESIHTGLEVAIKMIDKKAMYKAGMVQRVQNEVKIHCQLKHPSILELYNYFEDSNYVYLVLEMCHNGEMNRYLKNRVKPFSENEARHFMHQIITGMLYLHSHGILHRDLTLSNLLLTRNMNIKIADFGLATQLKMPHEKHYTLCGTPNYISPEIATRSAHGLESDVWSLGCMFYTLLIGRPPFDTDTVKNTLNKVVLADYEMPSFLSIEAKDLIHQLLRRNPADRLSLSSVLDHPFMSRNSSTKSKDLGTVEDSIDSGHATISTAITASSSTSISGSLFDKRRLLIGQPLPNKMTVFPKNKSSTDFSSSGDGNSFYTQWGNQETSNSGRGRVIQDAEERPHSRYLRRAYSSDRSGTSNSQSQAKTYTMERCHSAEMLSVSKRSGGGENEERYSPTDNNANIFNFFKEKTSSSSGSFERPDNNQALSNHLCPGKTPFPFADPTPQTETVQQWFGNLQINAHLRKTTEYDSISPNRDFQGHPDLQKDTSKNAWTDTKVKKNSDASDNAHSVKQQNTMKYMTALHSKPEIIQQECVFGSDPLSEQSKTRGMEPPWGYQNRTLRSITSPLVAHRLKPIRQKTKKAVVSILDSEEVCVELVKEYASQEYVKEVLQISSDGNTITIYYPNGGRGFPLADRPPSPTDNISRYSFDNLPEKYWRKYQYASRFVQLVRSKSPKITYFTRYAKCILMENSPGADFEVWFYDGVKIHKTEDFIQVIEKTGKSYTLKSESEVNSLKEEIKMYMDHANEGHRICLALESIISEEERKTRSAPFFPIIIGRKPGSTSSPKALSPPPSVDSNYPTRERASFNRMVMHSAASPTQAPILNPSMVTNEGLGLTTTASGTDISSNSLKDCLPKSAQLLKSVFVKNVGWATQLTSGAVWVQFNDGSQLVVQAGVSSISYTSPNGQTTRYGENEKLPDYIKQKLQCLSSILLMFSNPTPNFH

Series 1
Target: TAR DNA-binding protein 43, full length, His tag (TARDBP, Homo sapiens, UniProt Q13148, residues 1-414)
Method: RNA Bind-n-Seq
Molecule type: RNA
Medium: in vitro
Tested at: 20 nM
Notes: 6-mer, flanks averaged, single round
Added: 150 mM KCl
Reference: input library
Reading: higher = stronger binding
Endpoint: 6-mer enrichment (R)
Strand = CUGUAU; result = 0.674
Strand = AUUACG; result = 0.626
Strand = UCGUUC; result = 0.541
Strand = UUUACC; result = 0.609
Strand = UAAUUA; result = 0.72
Strand = AACCUU; result = 0.601
Strand = GCCCCA; result = 0.7
Strand = UUAGAA; result = 0.685

Series 2
Structure (SMILES): CCc1ccccc1C(=O)Nc1n[nH]c2c(C)c(F)c(C3C(C#N)=C(C)N(C)C(C)=C3C#N)cc12
Method: competition with immobilised ligand
Tested at: 1 µM
Endpoint: remaining binding
target = Inhibitor of nuclear factor kappa-B kinase subunit beta (IKBKB, Homo sapiens, UniProt O14920); assay = cell-free assay; result = 94%
target = Leucine-rich repeat serine/threonine-protein kinase 2 (LRRK2, Homo sapiens, UniProt Q5S007); assay = cell-free assay; result = 100%
target = TGF-beta receptor type-1 (TGFBR1, Homo sapiens, UniProt P36897); assay = cell-free assay; result = 58%
target = STE20-like serine/threonine-protein kinase (SLK, Homo sapiens, UniProt Q9H2G2); assay = cell-free assay; result = 100%
target = Serine/threonine-protein kinase 32B (STK32B, Homo sapiens, UniProt Q9NY57); assay = cell-free assay; result = 98%
target = Myosin light chain kinase (MYLK3, Homo sapiens, UniProt Q32MK0); assay = cell-free assay; result = 100%
target = Serine/threonine-protein kinase RIO1 (RIOK1, Homo sapiens, UniProt Q9BRS2); assay = cell-free assay; result = 82%
target = Tyrosine-protein kinase Lck (LCK, Homo sapiens, UniProt P06239); assay = binding; result = 100%
target = Serine/threonine-protein kinase WNK1 (WNK1, Homo sapiens, UniProt Q9H4A3); assay = cell-free assay; result = 100%
target = ALK tyrosine kinase receptor (ALK, Homo sapiens, UniProt Q9UM73, L1196M); assay = cell-free assay; result = 83%
target = Serine/threonine-protein kinase tousled-like 2 (TLK2, Homo sapiens, UniProt Q86UE8); assay = cell-free assay; result = 100%
target = Serine/threonine-protein kinase PLK4 (PLK4, Homo sapiens, UniProt O00444); assay = cell-free assay; result = 100%
target = Casein kinase I isoform gamma-3 (CSNK1G3, Homo sapiens, UniProt Q9Y6M4); assay = cell-free assay; result = 100%

Series 3
Target: Cyclin-dependent kinase 4, with cyclin D1 (CDK4, Homo sapiens, UniProt P11802)
UniProt P11802, sequence (whole entry, looked up): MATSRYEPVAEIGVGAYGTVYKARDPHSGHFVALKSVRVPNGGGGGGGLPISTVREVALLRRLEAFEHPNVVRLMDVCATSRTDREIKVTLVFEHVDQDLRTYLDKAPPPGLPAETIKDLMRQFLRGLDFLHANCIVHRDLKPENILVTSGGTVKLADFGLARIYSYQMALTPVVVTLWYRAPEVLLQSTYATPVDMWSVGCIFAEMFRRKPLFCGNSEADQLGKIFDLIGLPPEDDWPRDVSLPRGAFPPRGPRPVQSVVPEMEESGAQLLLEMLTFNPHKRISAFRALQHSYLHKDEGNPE
Observed: enzyme activity
Mode: inhibitor
Tested at: 0.5 µM
Reference: control
Endpoint: remaining activity
SMILES = O=C1NC(=O)C(c2cn(CCCn3ccnc3)c3ccccc23)=C1Nc1ccccc1; result = 99.1%
SMILES = COc1ccc(C(=O)Nc2sc3c(c2C(N)=O)CCCC3)cc1OC; result = 95.9%
SMILES = COc1cc2ncnc(Nc3ccc(F)c(Cl)c3)c2cc1OCCCN1CCOCC1; result = 94.3%
SMILES = Nc1ncnc2n[nH]c(Nc3ccc(F)cc3)c12; result = 90.3%
SMILES = Cc1cccc(-c2[nH]c(C(C)(C)C)nc2-c2ccc3c(c2)OCO3)n1; result = 105%
SMILES = OCC(O)CCON=C1C(c2c(O)[nH]c3ccccc23)=Nc2ccccc21 (centres unmarked); result = 96.4%
SMILES = COc1cc2nccc(Oc3ccc(NC(=S)NC(=O)c4ccccc4C)cc3)c2cc1OC; result = 95.1%

Single results of other studies
Strand = AAAAAAAA (biotin); target = RNA-binding protein MEX3B, KH domains 1-2 (MEX3B, Homo sapiens, UniProt Q6ZN04, residues 47-245); assay = protein domain microarray; system = RNA, in vitro; setting = not given, poly(A) 8-mer RNA, whole probe, immobilized GST-fusion domains, most near background; how to read = reference: GST loading signal, higher = stronger binding; endpoint = signal ratio; result = 16.9

Some of these lines once more (series 3):
SMILES = COc1ccc(C(=O)Nc2sc3c(c2C(N)=O)CCCC3)cc1OC; result = 95.9%
SMILES = COc1cc2ncnc(Nc3ccc(F)c(Cl)c3)c2cc1OCCCN1CCOCC1; result = 94.3%
SMILES = Nc1ncnc2n[nH]c(Nc3ccc(F)cc3)c12; result = 90.3%
SMILES = Cc1cccc(-c2[nH]c(C(C)(C)C)nc2-c2ccc3c(c2)OCO3)n1; result = 105%
